Published values collected from several papers.
Parts stem from different laboratories: compare values within a part only. Substitutions count along the parent as printed.

Series 1
Target: ABI1, truncated, D143A, DHFR fusion (Arabidopsis thaliana)
Technique: DHFR PCA, deep sequencing
Medium: yeast
Setting: methotrexate growth selection, single substitutions
Together with: (+)-ABA 17 µM
Baseline: wild-type fitted maximum
Direction: higher = stronger binding
Endpoint: relative binding score
Starting sequence: PYL1, truncated, DHFR fusion (Arabidopsis thaliana); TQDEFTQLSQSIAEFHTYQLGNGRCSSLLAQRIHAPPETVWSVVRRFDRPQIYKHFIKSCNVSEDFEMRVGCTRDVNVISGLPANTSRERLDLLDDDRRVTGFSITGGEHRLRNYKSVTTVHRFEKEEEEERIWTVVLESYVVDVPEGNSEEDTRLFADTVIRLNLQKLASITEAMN
D48V: -4.83%
E4C: 72.3%
G107P: -1.63%
L94T: -4.29%
M176V: 77.3%
L138V: 51.8%
F5D: 69.6%
D96Q: 12.5%
H110I: -20.2%
E64V: 73.2%
R123M: 77.9%
R24S: 73.5%
A84R: -3.13%
V143R: -3.9%
T135Y: -6.74%

Series 2
Target: CCND3, cyclin fold, Cln2 fusion (human)
Technique: yeast growth competition, sequencing
Medium: yeast
Setting: weak parent motif
Baseline: not given
Direction: higher = stronger binding
Endpoint: normalised enrichment score
Starting sequence: CDC25A docking peptide (human); PPHRRRLLFACSP; partner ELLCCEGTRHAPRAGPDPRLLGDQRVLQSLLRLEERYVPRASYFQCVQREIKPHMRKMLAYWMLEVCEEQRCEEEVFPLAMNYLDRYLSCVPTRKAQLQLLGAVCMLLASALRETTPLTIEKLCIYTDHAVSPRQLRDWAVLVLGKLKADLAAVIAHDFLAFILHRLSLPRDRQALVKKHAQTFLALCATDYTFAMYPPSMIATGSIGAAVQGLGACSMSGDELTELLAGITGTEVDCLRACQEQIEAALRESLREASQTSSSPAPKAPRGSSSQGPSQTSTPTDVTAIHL
IPHRRRLLFACSP [P1I]: 0.169
PPHRRRLLMACSP [F9M]: 0.136
PPHRRRLLTACSP [F9T]: 0.134
PPHRRRLRFACSP [L8R]: 0.1
PPHRRRLLFAESP [C11E]: 0.076
QPHRRRLLFACSP [P1Q]: 0.089
PPHRRRLVFACSP [L8V]: 0.157
PPHRRRLLFACSF [P13F]: 0.101
PPHMRRLLFACSP [R4M]: 0.0599
PPHRRPLLFACSP [R6P]: 0.0704
PPHRRRLLFACMP [S12M]: 0.114
PPHRRRVLFACSP [L7V]: 0.149
PMHRRRLLFACSP [P2M]: 0.118
PPHRRRLLFSCSP [A10S]: 0.105
PPHRRRLLFALSP [C11L]: 0.166
PPHQRRLLFACSP [R4Q]: 0.172
PPHRRRLLNACSP [F9N]: 0.162
PPHRRRLLFECSP [A10E]: 0.0869
PPYRRRLLFACSP [H3Y]: 0.137
PPHRRRLIFACSP [L8I]: 0.134
PPHRRRLLFAGSP [C11G]: 0.0994
MPHRRRLLFACSP [P1M]: 0.101
PPHRRALLFACSP [R6A]: 0.0716
PPHRRKLLFACSP [R6K]: 0.124
PPHRRRLLFACHP [S12H]: 0.103

Series 3
Target: RNA binding protein fox-1 homolog 2, RRM domain, GST-SBP tag (RBFOX2, Homo sapiens, UniProt O43251-10, residues 100-194)
Technique: RNA Bind-n-Seq
Molecule type: RNA
Medium: in vitro
Tested at: 365 nM
Setting: natural RNA segment, single round, ends assumed
Baseline: no-protein control
Direction: higher = stronger binding
Endpoint: RBNS enrichment (R)
Constant ends, left off below: GGGAGUUCUACAGUCCGACGAUC … UGGAAUUCUCGGGUGCCAA
Construct (chain): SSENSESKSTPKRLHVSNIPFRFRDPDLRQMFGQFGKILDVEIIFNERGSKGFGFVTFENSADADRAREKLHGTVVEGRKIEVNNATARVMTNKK
UGGAACUGUGCAAGAAAAGAACAAGGAAAAAUGGAUGUUUCGCUGCAGGAUUAAGUUACAAUUAUCUUCUCAGUGAAGGUCAUUUGUGAUGGGGUCUAAUUCUUAUUACU: 0.839
AUGGAUCUAUAUAACCAAUGAGUUGAUUCUCUUAAAAAAAUAAUAAACCCCCCUCUAUUAUGUGGGCCUAUGUACAAAUGUGGGUAUCCGCUGGUUUUGUUGUCUACGGG: 0.589
AGUGACUUUAUGUACUUAUAUUAACAGCUGGAAAUAGGUUGUUGGGUUUUGAGCAGGCUGUUAUAGUGAGGAAUGUUCAUUUUUAAAUGUUCCUAACAGAUUUUGCUUUU: 0.411
AGGGACGGAUAAGGGCAGAUGUCAGCAAUACUAAGGGCUUCCUCCUGGGAGGGAAUGAGGUUCCACUCAUUGUCUCGUGACUUCCAUCCCUGCUGAACGGGGCUGCAAGG: 0.817
UCAUAAAGAUUUUCAAUCAUUCAAUUUCAUUUAUCAACUGAAAUUUUGUUUAGUAUGUGAAUUUUUUUUUGAAAUGUAUAGUAAAUAAGAUGUUGCACUGGUGGCAAUUC: 0.691
CUUCCUUUUUCCUGGGAUUCUUUAUCCUAAACCCUGCAUAUCUGAGAACCGCCUUUCUCAUAUUUCCUGAAUGGGGUUUGACUCUAUUUGGGGAAAACAUUGCUUUUGGU: 0.293
AAUCGGGAUUUUGACUGAAUGGGAUGUCUGGCAUGAGUCCCACUUUGGCCAUUGUCUAUUUGACAGUAACAGUAUUCCCAAUUUUUGUAAAGUUGUAUGUGCUGUUGUGU: 3.65
GAGCCUGGUUCUCCCCCAGAGGUGUUGAUGCUGAAAACUUGCCAUUGUGGGCAGGGAGGGCAGAAAUAAAGUCUGCAGCCGUGCCACUCCUUGGGUCAAAAGGACACGCA: 0.621
AAAGUAGGUCCUUAUUUACAAGGCUGCGUUAAAGUUGUACUAGGCAAACACACUGAUGUAGGAAGCACGAGGAAAGGAAGACGUUUUGAUAUAGUGUUACUGUGAGCCUG: 2.42
AGACCUAGCCUGGUUUUCCCUUAGACAAUGAAUGAAGUGUGCCCAUUGAAAUAAAACUCAAACCACACUGCGGUUGUUGUCUUAAUGAUUAAAUGUUCCGUUUCUAGCUG: 0.256
CUUUUCCCAAACGGGAAGAACACAGCACACCCGGCUUGGACCCACUGCAAGCUGCAUCGUGCAACCUCUUUGGUGCCAGUGUGGGCAAGGGCUCAGCCUCUCUGCCCACA: 1.65
AAGGGAAGGGUAGCCAGGGAGGGAGUCCAGCCCAGCUGCCUGCAGGAAGAUCUGGCUCAGUCUACUAUGGGCAGGGCCCCCCACCAAGCUGAGCCGAAUGGAGACAGCUG: 0.349

Series 4
Target: RING finger protein unkempt homolog, zinc fingers 1-6, GST-SBP tag (UNK, Homo sapiens, UniProt Q9C0B0, residues 30-357)
Technique: RNA Bind-n-Seq
Molecule type: RNA
Medium: in vitro
Tested at: not given
Setting: RNA with constant flanks, human-mouse chimeric sites, ends assumed
Baseline: input RNA pool
Direction: higher = stronger binding
Endpoint: bound/input enrichment
Constant ends, left off below: GGGAGUUCUACAGUCCGACGAUC … CAACAGAGGAUUGAGCAUCA
Construct (chain): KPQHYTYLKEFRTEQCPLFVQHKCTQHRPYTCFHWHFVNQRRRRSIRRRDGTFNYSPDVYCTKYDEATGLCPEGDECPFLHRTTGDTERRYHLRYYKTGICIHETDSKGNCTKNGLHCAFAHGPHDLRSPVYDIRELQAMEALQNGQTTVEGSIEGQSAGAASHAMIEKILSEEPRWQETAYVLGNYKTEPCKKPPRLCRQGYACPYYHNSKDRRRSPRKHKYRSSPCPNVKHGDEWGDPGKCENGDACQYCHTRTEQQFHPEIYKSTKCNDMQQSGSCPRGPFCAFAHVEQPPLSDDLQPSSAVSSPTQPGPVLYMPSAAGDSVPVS
UGUAACUUAUCUGUAAAAGGUUCCCCCCCCCUACUGUAAAAAAAUAUGCAUGUAUAGUAAUUAGGACUUCAUUCCUCCAUGUUUUCUUCCCUUAUCUUACUGUCAUUGUCCUAAAACCUU: 3.41 ratio
GAGCGUCUUGCCCGCACCGGGAUCAUAGUGACCACUAGUGAGGCUGUCCUCCUACAGCUGGUAGCUGACAAAGACCACCCGAAGUUCAAGGAAAUUCAGAACCUAAUUAAGGCGAGUGCC: 0.182 ratio
GAAACUAUUCCUAAAGAGGAGAAAGCUGAGAAGGAUGCUCGGAGAUCGUCUCUCGAGAAACAUAGAAAAGAAAAGCCUUUUAAAACCGGGAGAGGCAGAAUUUCCACUCCUGAAAGAAAA: 0.549 ratio
GGUGGGGGGUUGUCAUUCGUUUGAGCUGCUGAUUUUCAUGAGUCGCCUUCAAAACUCUCGUGUAGGGUUGACAAUGUGGGGGGGUGGGAAAUCUAGCUUAUUCUUUUAUUUUCAAGUCCA: 21.8 ratio
CUAGCAGUUAUAAGGCAAGAAGGAGCCUUGAGACAAACACUCCACACACAGGGAAGGCGAUAACAUUGUACAUUGGUUUACAUUUUUUCCCCCUGUGGAUUUUUCUAGAGGUCAUAGUGC: 0.74 ratio
AUCAAGUACUUUGGGGACAUCAUUAGUGUGGGACAGAGACUGUUGCAAGGAGCUCGGAUCUUAGGGAUUCCAGUUAUUGUAACAGAACAAUACCCCAAAGGACUUGGCAGCACCGUUCAA: 0.112 ratio
CAGCCUCAGAGCCCAGACUUCCUGGAUAUUACCAACCCUAAAGCGGUAUUAGAAAAUGCAUUGAGAAACUUCGCCUGUCUGACGACUGGAGAUGUGAUUGCCAUCAACUAUAAUGAAAAG: 0.43 ratio
CUGGCCUGGCCCUCCCCAGGGGCCUCCUUCUCUGCAUUCACUGCUUCUGCAUCAGAUACUUUCAGCUGCAACUCCCUACUGGGUGGGGCACCCAUUUGAGGCAGGGUGUUUUGGUACCCU: 0.328 ratio
CGCCUGGAUGAGGCGGGUGUCACAGAUGAAGUGCUAGAUUCUGCCAUGCAAGCCUUCCUUCUGGAGGUCAUUGUUAAACAUGGGGAGCCGGCACCUUAUUUAUGUAACAAAGAUCCGUUU: 0.0956 ratio
AUUGUUGAAGCUAACCCACUUUUAGAAGCAUUUGGAAAUGCAAAGACUGUUCGCAACAAUAAUAGCAGUCGAUUUGGAAAAUUUGUAGAAAUUCAUUUUAAUGAAAAGAGUUCGGUUGUU: 1.03 ratio
CUCGGCACCGGCACGCUUUACAUCGCUGAGAGCCGCCUGUCCUGGUUAGAUGGCUCUGGAUUAGGAUUCUCACUGGAAUACCCCACCAUUAGUUUACAUGCGGUGUCCAGGGAUCCAAAC: 0.391 ratio

Series 5
Target: Phosphate system positive regulatory protein PHO4, full length, GST-tagged (PHO4, Saccharomyces cerevisiae, UniProt P07270, residues 1-312)
Technique: competition protein-binding microarray
Molecule type: double-stranded DNA, one strand shown
Medium: in vitro
Tested at: 2 µM
Setting: whole 60-bp probe, lowest competitor level
Together with: Cbf1 competitor, 0.05 µM
Direction: higher = stronger binding
Endpoint: fluorescence intensity
Constant ends, left off below: … GTCTTGATTCGCTTGACGCTGCTG
Residues (chain): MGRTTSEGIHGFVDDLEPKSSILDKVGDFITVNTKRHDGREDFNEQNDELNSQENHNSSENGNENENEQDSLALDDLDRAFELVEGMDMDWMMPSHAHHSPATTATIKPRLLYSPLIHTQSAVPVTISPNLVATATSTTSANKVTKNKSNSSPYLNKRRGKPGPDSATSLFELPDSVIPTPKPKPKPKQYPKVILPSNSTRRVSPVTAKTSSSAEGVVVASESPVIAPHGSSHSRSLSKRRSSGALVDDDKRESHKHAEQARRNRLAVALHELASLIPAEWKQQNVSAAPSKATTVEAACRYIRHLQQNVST
TCTTTTCAGAGGCCCCATGTGGGCCCTTTCTTCCAA: 10600 a.u.
ACAGATAAAGTCTAGTACGTGTGGAGGTTAATGCGC: 6350 a.u.
TAATTTGCTGTCCATCACGTGATGGATAATTTTTTT: 15100 a.u.
ATTTTTCAATATTTTCACATGTGTGTCAATTTCTGC: 8670 a.u.
GAAAGACGGACATACCGCGTGCGGAGAACTTTTTCA: 11100 a.u.
CTAACGAAGGTTTGCGTGGTGGGTGACAAGCCAAGT: 5990 a.u.
TTGGTACTGGTATTGCACGTGGAAGTGGCGGAGCAG: 17900 a.u.
CGGGGTTAAGTTTGTCACCTAACTTGCTTGCAGCAG: 3470 a.u.
CTTTCCCGATCTTGACCTGTGGGTGTAGCACATTTG: 4520 a.u.
ATATCAAATTCATTGAAGGAGGTCCCAACCGCGAGA: 3210 a.u.
TGCTGGCATTCTTATCTCGTGCTTTTATTAGTGGGC: 9680 a.u.
CTAACGAAGGTTTGTCCTGTGGGTGACAAGCCAAGT: 3590 a.u.
AATTGGGTATTTTACCTCGTGATGGCCTCACAAAAG: 9230 a.u.
CGGGGTTAAGTTTGGACAGTGGGTGGCTTGCAGCAG: 4640 a.u.
GAACTTGAAGCACTTCACGTGCCGATCCTGCGCTCA: 13700 a.u.
AACATGAAATACGAATTTGTGATGAAGATACCCTCA: 3030 a.u.
CTTCTGTAAATTTGGCTTGTGGGTGGACGCGCCCCG: 5220 a.u.
